Earlier results, collected from citations in different studies.
Protocols differ between the studies behind these lines. Converted amounts (≈) assume the structure as drawn.
Organism: Escherichia coli

The MIC of `CCN1CCN(c2cc3c(cc2F)c(=O)c(C(=O)O)cn3C2CC2)CC1` is reported as 16 µg/mL (≈ 44.5 µM).
The MIC of `CNC(C)C1CCC(N)C(OC2C(N)CC(N)C(OC3OCC(C)(O)C(NC)C3O)C2O)O1` (stereo not shown) is reported as ≤ 0.5 µg/mL (clinical isolate RKI-No_525/16).
`CC1(C)S[C@@H]2[C@H](NC(=O)[C@H](N)c3ccc(O)cc3)C(=O)N2[C@H]1C(=O)O` gave an MIC of 32 µg/mL (≈ 87.6 µM).
`CC(C)(O/N=C(\C(=O)N[C@@H]1C(=O)N2C(C(=O)[O-])=C(C[n+]3ccccc3)CS[C@H]12)c1csc(N)n1)C(=O)O` has an MIC of > 2050 µg/mL (ATCC BAA-2469).
The MIC of `CC1(C)S[C@@H]2[C@H](NC(=O)[C@H](N)c3ccccc3)C(=O)N2[C@H]1C(=O)O` is reported as > 16 µg/mL (clinical isolate RKI-No_867/14).
The MIC of `FC(F)(F)c1ccc(Oc2ccc(-c3noc(-c4ccc5[nH]ccc5c4)n3)cc2)cc1` is reported as > 128 µg/mL (ATCC 25922).
`CC(C)(O/N=C(\C(=O)N[C@@H]1C(=O)N2C(C(=O)[O-])=C(C[n+]3ccccc3)CS[C@H]12)c1csc(N)n1)C(=O)O` has an MIC of 4 µg/mL (≈ 7.32 µM) (clinical isolate RKI-No_582/16).
With `CN(C)c1cc(NC(=O)CNC(C)(C)C)c(O)c2c1C[C@H]1C[C@H]3[C@H](N(C)C)C(O)=C(C(N)=O)C(=O)[C@@]3(O)C(O)=C1C2=O` the MIC was 0.03 to 0.25 µg/mL (≈ 0.0512 to 0.427 µM) (ATCC 25922).
For `COc1ccc2cc3[n+](cc2c1OC)CCc1cc2c(cc1-3)OCO2`, the MIC was 512 µg/mL.
`CC[C@H](C)CCCCC(=O)N[C@@H](CCN)C(=O)N[C@H](C(=O)N[C@@H](CCN)C(=O)N[C@H]1CCNC(=O)[C@H]([C@@H](C)O)NC(=O)[C@H](CCN)NC(=O)[C@H](CCN)NC(=O)[C@H](CC(C)C)NC(=O)[C@@H](CC(C)C)NC(=O)[C@H](CCN)NC1=O)[C@@H](C)O` gave an MIC of 0.125 µg/mL (≈ 0.107 µM) (ATCC BAA-2469).
The MIC of `NC[C@H]1O[C@H](O[C@H]2[C@H](O)[C@@H](O[C@H]3O[C@H](CO)[C@@H](O)[C@H](N)[C@H]3O)[C@H](N)C[C@@H]2N)[C@H](O)[C@@H](O)[C@@H]1O` is reported as 2 µg/mL (≈ 4.13 µM).
`NC[C@H]1O[C@H](O[C@H]2[C@H](O)[C@@H](O[C@H]3O[C@H](CO)[C@@H](O)[C@H](N)[C@H]3O)[C@H](N)C[C@@H]2N)[C@H](N)C[C@@H]1O` gave an MIC of 1020 µg/mL (≈ 2190 µM) (ATCC BAA-2469).
The MIC of `CCc1c(Cl)c(O)c(Cl)c(O)c1C(=O)O[C@H]1[C@H](O)[C@H](OC)[C@H](OC/C2=C\C=C\C[C@H](O)/C(C)=C/[C@H](CC)[C@@H](O[C@@H]3OC(C)(C)[C@@H](OC(=O)C(C)C)[C@H](O)[C@@H]3O)/C(C)=C/C(C)=C/C[C@@H]([C@@H](C)O)OC2=O)O[C@@H]1C` is reported as > 128 µg/mL (ATCC 25922).

For quick reference, copied from above:
`NC[C@H]1O[C@H](O[C@H]2[C@H](O)[C@@H](O[C@H]3O[C@H](CO)[C@@H](O)[C@H](N)[C@H]3O)[C@H](N)C[C@@H]2N)[C@H](N)C[C@@H]1O` gave an MIC of 1020 µg/mL (≈ 2190 µM) (ATCC BAA-2469).
